Measurements collected from several papers.
Lines come from different studies, so protocols differ. “And” joins repeats or separate records; there may be more than shown. ± marks the error that the study gave. Values after ≈ are worked out from the molar mass of the structure shown.

Cc1ncsc1-c1ccc(CNC(=O)[C@@H]2C[C@H](O)CN2C(=O)[C@@H](NC(=O)CN2CCN(C3CN(CCNC(=O)C[C@@H]4N=C(c5ccc(Cl)cc5)c5c(sc(C)c5C)-n5c(C)nnc54)C3)CC2)C(C)(C)C)cc1 — protein level (Spodoptera frugiperda; degrader, targeted LC-MS, refers to: BRD3; Sf9; 0.0001 µM): 131% and 145% and 128% and 150%
CSc1ccc(Nc2n[nH]c3nc(-c4ccccc4)nc(N)c23)cc1 — IC50 (coxsackievirus B3; viral cytopathic effect; HeLa): 6890 nM
C=CC(=O)Nc1cccc(Cn2ncc3cnc(Nc4cnn(CCOC)c4)nc32)c1 — binding (human CTK; KINOMEscan; 100 nM; baseline: control): 100%
COc1cc(O)ccc1CCC(c1ccc(O)cc1)c1cc2c(c(C)c1O)OC(c1ccc(O)cc1)CC2 (mixture of isomers) — 4-HDHA level (human blood; 0.3 µM, with: A23187): 26 ± 8 pg/mL
Nc1nc(-c2ccc(OC(F)(F)F)cc2)nc2[nH]nc(Nc3ccccc3)c12 — IC50 (rhinovirus B42; viral cytopathic effect; HeLa): 2400 nM
COC1CN([C@H]2CC[C@H]([C@@]3(C)Oc4c(Cl)cc(C(=O)NCc5c(SC)cc(C)[nH]c5=O)c(C)c4O3)CC2)C1 — log2 fold change (RNA-seq, refers to: SGCB mouse homolog; mouse, HT-1376 xenograft, whole blood; dose not given; baseline: vehicle): 0.776
CC[C@H](C)[C@H](NC(=O)[C@H](Cc1ccc(O)cc1)NC(=O)[C@H](CCC(=O)O)NC(=O)CNC(=O)[C@H](CCC(=O)O)NC(=O)[C@H](CCCCN)NC(=O)[C@H](CCCCN)NC(=O)[C@H](CC(=O)O)NC(=O)[C@H](Cc1c[nH]cn1)NC(=O)[C@H](Cc1c[nH]cn1)NC(=O)[C@H](Cc1c[nH]cn1)NC(=O)[C@H](Cc1c[nH]cn1)NC(=O)[C@H](Cc1c[nH]cn1)NC(=O)[C@H](Cc1c[nH]cn1)NC(=O)[C@H](Cc1c[nH]cn1)NC(=O)[C@H](Cc1c[nH]cn1)NC(=O)[C@H](Cc1c[nH]cn1)NC(=O)[C@@H](N)Cc1c[nH]cn1)C(=O)N[C@@H](CCCCN)C(=O)N[C@@H](CC(C)C)C(=O)N[C@@H](CCCCN)C(=O)N[C@H](C(=O)N[C@H](C(=O)NCC(=O)N[C@@H](CCC(N)=O)C(=O)N[C@@H](CC(=O)O)C(=O)N[C@@H](CO)C(=O)N[C@@H](CO)C(=O)N[C@@H](CCC(=O)O)C(=O)N[C@H](C(=O)N[C@@H](Cc1c[nH]cn1)C(=O)N[C@@H](Cc1ccccc1)C(=O)N[C@@H](CCCCN)C(=O)N[C@H](C(=O)N[C@@H](CCCCN)C(=O)N[C@@H](CCSC)C(=O)N[C@H](C(=O)N[C@H](C(=O)N[C@@H](Cc1c[nH]cn1)C(=O)N[C@@H](CC(C)C)C(=O)N[C@@H](CCCCN)C(=O)N[C@@H](CCCCN)C(=O)N[C@@H](CC(C)C)C(=O)N[C@@H](CCCCN)C(=O)N[C@@H](CCC(=O)O)C(=O)N[C@@H](CO)C(=O)N[C@@H](Cc1ccc(O)cc1)C(=O)N[C@@H](CS)C(=O)N[C@@H](CCC(N)=O)C(=O)N[C@@H](CCCNC(=N)N)C(=O)N[C@@H](CCC(N)=O)C(=O)O)[C@@H](C)O)[C@@H](C)O)C(C)C)[C@@H](C)CC)[C@@H](C)CC)C(C)C — climbing mean difference (Drosophila melanogaster; α-synuclein A53T transgenic; 120 µM, 11 days post eclosion, unit not given; baseline: untreated): -28
COc1ccc(C(=O)CCc2cc(C(CCc3ccc(O)cc3OC)c3ccc(O)cc3)c(O)cc2OC)cc1 (racemic) — PGD2 level (human blood; 1 µM, with: A23187): 9 ± 5 pg/mL
CC(C)(C)NCC(SS(=O)(=O)O)c1ccccc1 (stereo not drawn) — spleen weight reduction (Schistosoma mansoni; infected mouse; 200 mg/kg, 1368 h; baseline: vehicle): 55%
C=C(NC(=O)c1csc(-c2nc3c(cc2O)-c2nc(cs2)C(=O)NC(C(C)O)C(=O)NC(=C(C)OC)c2nc(cs2)C(=O)NC2c4nc(cs4)C(=O)NC(COC(=O)c4c5c6c(cccc6n4O)COC(=O)C(OC4CC(C)(O)C(N(C)C)C(C)O4)C2OC5)c2nc-3cs2)n1)C(N)=O (stereo not drawn) — MIC50 (Streptococcus pneumoniae; penicillin-resistant, 10 isolates; pH 5.5): 7.8 ng/mL (≈ 5.43 nM)
Nc1nc(-c2ccccc2)nc2[nH]nc(Nc3ccc(F)cc3F)c12 — IC50 (coxsackievirus B3; viral cytopathic effect; HeLa): 120 nM
CNS(=O)(=O)Nc1nccc(Cc2c(C)c3ccc(Oc4ncccc4F)cc3oc2=O)c1F — IC50 (OV7; cell viability; 7 days): > 1000 nM
Nc1nc(-c2ccccc2)nc2[nH]nc(Nc3cccc(Cl)c3)c12 — IC50 (rhinovirus B42; viral cytopathic effect; HeLa): 420 nM
C=CC(=O)N1[C@@H](c2ccc3c(c2)OCO3)c2[nH]c3ccccc3c2C[C@H]1C(=O)N1CCN(C)CC1 — relative co-enrichment (human cyclin E1 wild type-3xFLAG:CDK2; co-IP with TMT proteomics, refers to: RBMX; concentration not given, P38159; baseline: wild type DMSO): 109%
CN(Cc1cc(C2CC2)on1)C(=O)c1cccc(-c2ccc3c(c2)CCO3)c1 — reaction rate (acetyl-CoA synthetase 1 (Aspergillus fumigatus); enzyme activity, inhibitor, coupled pyrophosphate; 125 µM; higher is more activity): 0.000851 a.u.
Nc1nc(-c2ccc(Cl)cc2)nc2[nH]nc(Nc3cccc(F)c3)c12 — IC50 (rhinovirus B42; viral cytopathic effect; HeLa): 270 nM
CN1CCC[C@]1(C)/C=C/S(=O)(=O)NC(=O)Nc1c2c(cc3c1CCC3)CCC2 — IL-18 inhibition (human, whole blood ex vivo; 12.5 mg twice daily, day 1, 6 h, multiple ascending dose, with: LPS and ATP): 96.5%
Cc1ncsc1-c1ccc(C(C)NC(=O)C2CC(O)CN2C(=O)C(NC(=O)CCCCCCCCCCN2CCCC(Nc3ncc(Cl)c(Nc4ccccc4S(=O)(=O)C(C)C)n3)C2)C(C)(C)C)cc1 (stereo not drawn) — log2 fold change (22Rv1; RNA-seq, refers to: MFHAS1 mRNA; concentration not given; baseline: DMSO): -1.05
Cc1c(C)c2cccnc2c2ncccc12.O=[N+]([O-])[O-].O=c1c(C=NN=C([S-])Nc2ccccc2)coc2ccccc12.[Cu+2] — supercoiled DNA remaining (supercoiled pUC19 DNA; oxidative DNA cleavage; concentration not given, under nitrogen, with: ascorbic acid): 0%
COc1ccc(Nc2n[nH]c3nc(-c4ccccc4)nc(N)c23)cc1 — IC50 (rhinovirus B42; viral cytopathic effect; HeLa): 10 nM
Nc1ncc(-c2cc(-c3cnn(CC(F)(F)F)c3)ncc2F)nc1C(=O)NC1CNCC(F)C1 (stereo not drawn) — remaining binding (CDK11; KINOMEscan; 1 µM; baseline: DMSO control): 75%
